{"data": "Experimental data pooled from the literature", "target": "Mu-type opioid receptor (Oprm1, Rattus norvegicus, UniProt P33535)", "sequence of UniProt P33535 (whole entry, looked up)": "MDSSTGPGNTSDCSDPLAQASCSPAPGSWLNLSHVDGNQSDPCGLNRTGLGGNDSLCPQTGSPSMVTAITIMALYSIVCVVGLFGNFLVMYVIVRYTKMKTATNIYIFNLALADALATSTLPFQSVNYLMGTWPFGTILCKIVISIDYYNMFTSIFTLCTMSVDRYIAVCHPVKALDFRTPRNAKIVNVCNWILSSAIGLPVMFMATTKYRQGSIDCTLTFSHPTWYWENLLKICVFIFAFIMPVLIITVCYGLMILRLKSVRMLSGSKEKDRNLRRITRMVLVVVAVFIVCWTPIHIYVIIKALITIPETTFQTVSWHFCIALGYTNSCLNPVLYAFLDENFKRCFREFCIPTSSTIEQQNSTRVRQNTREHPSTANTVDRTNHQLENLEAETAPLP"}
{"Compound": "N=C(N)NCCC[C@@H]1NC(=O)[C@H](CCCNC(=N)N)NC(=O)[C@H](NC(=O)[C@H](Cc2ccccc2)NC(=O)CNC(=O)CNC(=O)[C@H](Cc2ccc(O)cc2)NCc2ccccc2)CC(=O)NCC[C@@H](C(=O)N[C@@H](CCCNC(=N)N)C(=O)N2CCC[C@H]2C(=O)N[C@@H](CCCCN)C(N)=O)NC1=O", "test": "ligand displacement, radioligand", "conditions": "cell membranes", "Ki [nM]": 3200}
{"Compound": "CCCCC(=N)NCc1ccc2[nH]c3c(c2c1)CC1(O)C2Cc4ccc(O)c5c4C1(CCN2CC1CC1)C3O5 (stereo not drawn)", "test": "ligand displacement, radioligand", "conditions": "cell membranes", "Ki [nM]": 0.88}
{"Compound": "Cc1cc(O)cc(C)c1CC(N)C(=O)NC1CCNc2c(Br)cc(Cc3ccccc3)cc21 (stereo not drawn)", "test": "ligand displacement, radioligand", "conditions": "cell membranes", "Ki [nM]": 0.23}
{"Compound": "COC(=O)N(C)[C@@H](Cc1ccccc1)C(=O)N[C@@H](Cc1ccccc1)C(=O)N[C@@H](Cc1c[nH]c2ccccc12)C(=O)N[C@@H](CCCNC(=N)N)C(=O)N[C@@H](CC(C)C)C(=O)N[C@@H](CCCNC(=N)N)C(=O)N[C@@H](CCCNC(=N)N)C(=O)N[C@H](C)C(=O)N[C@@H](CCCNC(=N)N)C(=O)N1CCC[C@H]1C(=O)N[C@@H](CCCCN)C(N)=O", "test": "ligand displacement, radioligand", "Ki [nM]": 1280}
{"Compound": "Cc1cc(O)cc(C)c1CC(N)C(=O)NC1CCNc2ccc(CN3CCc4ccccc4C3)cc21 (stereo not drawn)", "test": "ligand displacement, radioligand", "conditions": "cell membranes", "Ki [nM]": 0.03}
{"Compound": "N=C(N)NCCC[C@@H]1NC(=O)[C@@H](NC(=O)[C@H](Cc2ccccc2)NC(=O)CNC(=O)CNC(=O)[C@H](Cc2ccc(O)cc2)NCc2ccccc2)CC(=O)NC[C@@H](C(=O)N[C@@H](CCCNC(=N)N)C(=O)N2CCC[C@H]2C(=O)N[C@@H](CCCCN)C(N)=O)NC(=O)[C@H](CCCNC(=N)N)NC1=O", "test": "ligand displacement, radioligand", "conditions": "cell membranes", "Ki [nM]": 2610}
{"Compound": "Oc1cccc(CCN(CCc2ccccc2)CC2CCCC2)c1", "test": "ligand displacement, radioligand", "conditions": "cell membranes", "Ki [nM]": 130}
{"Compound": "Cc1cc(O)cc(C)c1CC(N)C(=O)NC1CCNc2c(Cc3ccccc3)cccc21 (stereo not drawn)", "test": "ligand displacement, radioligand", "conditions": "cell membranes", "Ki [nM]": 48}
{"Compound": "Cc1cc(O)cc(C)c1CC(N)C(=O)NC1CCNc2ccc(CN3CCCCC3)cc21 (stereo not drawn)", "test": "ligand displacement, radioligand", "conditions": "cell membranes", "Ki [nM]": 0.3}
{"Compound": "N=C(N)NCCC[C@@H]1NC(=O)[C@H](Cc2ccc(O)cc2)NC(=O)CNC(=O)[C@H](Cc2c[nH]c3ccccc23)NC(=O)[C@H](CNC(=O)c2ccccc2N)NC1=O", "test": "binding", "Ki [nM]": 31000}
{"Compound": "Cc1cc(O)cc(C)c1CC(N)C(=O)NC1CCNc2c(C(=O)O)cc(Cc3ccccc3)cc21 (stereo not drawn)", "test": "ligand displacement, radioligand", "conditions": "cell membranes", "Ki [nM]": 0.47}
{"Compound": "Cc1cc(O)cc(C)c1CC(N)C(=O)NC1CCNc2ccc(CN3CCOCC3)cc21 (stereo not drawn)", "test": "ligand displacement, radioligand", "conditions": "cell membranes", "Ki [nM]": 0.6}
{"Compound": "CCOC(=O)c1cc(Cc2ccccc2)cc2c1NCCC2NC(=O)C(N)Cc1c(C)cc(O)cc1C (stereo not drawn)", "test": "ligand displacement, radioligand", "conditions": "cell membranes", "Ki [nM]": 1}
{"Compound": "CC[C@H](C)[C@H](NC(=O)[C@H](CCCNC(=N)N)NC(=O)[C@H](CCCNC(=N)N)NC(=O)[C@@H]1C/C=C/COc2ccc(cc2)C[C@H](NC(=O)[C@H](Cc2ccccc2)NC(=O)[C@H](Cc2ccccc2)NC(C)=O)C(=O)N[C@@H](CCCNC(=N)N)C(=O)N1)C(=O)N[C@@H](CCCNC(=N)N)C(=O)N1CCC[C@H]1C(=O)N[C@@H](CCCCN)C(N)=O", "test": "ligand displacement, radioligand", "Ki [nM]": 3460}
{"Compound": "CC(C)C[C@H](NC(=O)C1(NC(=O)CNC(=O)[C@H](NC(=O)[C@@H](N)Cc2ccc(O)cc2)[C@H](C)O)Cc2ccccc2C1)C(=O)N[C@@H](CO)C(N)=O", "test": "ligand displacement, radioligand", "conditions": "pH 7.4, cell membranes", "Ki [nM]": "> 1000"}
{"Compound": "CCc1cc(Cc2ccccc2)cc2c1NCCC2NC(=O)C(N)Cc1c(C)cc(O)cc1C (stereo not drawn)", "test": "ligand displacement, radioligand", "conditions": "cell membranes", "Ki [nM]": 0.09}
{"Compound": "COC(=O)N(C)[C@@H](Cc1ccccc1)C(=O)N[C@@H](Cc1ccccc1)C(=O)N[C@@H](Cc1ccc(O)cc1)C(=O)N[C@@H](CCCNC(=N)N)C(=O)N[C@@H](CC(C)C)C(=O)N[C@@H](CCCNC(=N)N)C(=O)N[C@@H](CCCNC(=N)N)C(=O)N[C@H](C)C(=O)N[C@@H](CCCNC(=N)N)C(=O)N1CCC[C@H]1C(=O)N[C@@H](CCCCN)C(N)=O", "test": "ligand displacement, radioligand", "Ki [nM]": 1300}
{"Compound": "Cc1cc(O)cc(C)c1C[C@H](N)C(=O)N[C@@H](C(=O)NCC(=O)N[C@@H](Cc1ccc2ccccc2c1)C(=O)N[C@@H](CC(C)C)C(=O)N[C@@H](CO)C(N)=O)[C@H](C)O", "test": "ligand displacement, radioligand", "conditions": "pH 7.4, cell membranes", "Ki [nM]": 0.5}
{"Compound": "C[C@@H](NC(=O)[C@@H](N)Cc1ccc(O)cc1)C(=O)NCC(=O)N[C@@H](Cc1ccc(F)cc1)C(=O)Nc1ccccc1NC(=O)[C@H](Cc1ccc(F)cc1)NC(=O)CNC(=O)[C@@H](C)NC(=O)[C@@H](N)Cc1ccc(O)cc1", "test": "ligand displacement, radioligand", "conditions": "cell membranes", "Ki [nM]": 0.51}
{"Compound": "Cc1cc(O)cc(C)c1CC(N)C(=O)NC1CCNc2ccc(CN3CCCCCC3)cc21 (stereo not drawn)", "test": "ligand displacement, radioligand", "conditions": "cell membranes", "Ki [nM]": 0.15}
{"Compound": "CC(=O)N(C)[C@@H](Cc1ccccc1)C(=O)N[C@@H](Cc1ccccc1)C(=O)N[C@@H](Cc1ccc(O)cc1)C(=O)N[C@@H](CCCNC(=N)N)C(=O)N[C@@H](CC(C)C)C(=O)N[C@@H](CCCNC(=N)N)C(=O)N[C@@H](CCCNC(=N)N)C(=O)N[C@H](C)C(=O)N[C@@H](CCCNC(=N)N)C(=O)N1CCC[C@H]1C(=O)N[C@@H](CCCCN)C(N)=O", "test": "ligand displacement, radioligand", "Ki [nM]": 3370}
{"Compound": "CCCCc1cc(Cc2ccccc2)cc2c1NCCC2NC(=O)C(N)Cc1c(C)cc(O)cc1C (stereo not drawn)", "test": "ligand displacement, radioligand", "conditions": "cell membranes", "Ki [nM]": 0.76}
{"Compound": "CC(=O)N(C)[C@@H](Cc1ccccc1)C(=O)N[C@@H](Cc1ccccc1)C(=O)N[C@@H](Cc1ccc2ccccc2c1)C(=O)N[C@@H](CCCNC(=N)N)C(=O)N[C@@H](CC(C)C)C(=O)N[C@@H](CCCNC(=N)N)C(=O)N[C@@H](CCCNC(=N)N)C(=O)N[C@H](C)C(=O)N[C@@H](CCCNC(=N)N)C(=O)N1CCC[C@H]1C(=O)N[C@@H](CCCCN)C(N)=O", "test": "ligand displacement, radioligand", "Ki [nM]": 121}
{"Compound": "CCC(=O)N(CC1CCCCN1C(=O)CCNC(=O)[C@H](Cc1ccccc1)NC(=O)CNC(=O)[C@@H](C)NC(=O)[C@@H](N)Cc1c(C)cc(O)cc1C)c1ccccc1 (stereo partly drawn)", "test": "cell-free assay", "Ki [nM]": 0.9}
{"Compound": "CC(=O)NCC(=O)N(C)[C@@H](Cc1ccccc1)C(=O)N[C@@H](Cc1ccccc1)C(=O)N[C@@H](Cc1c[nH]c2ccccc12)C(=O)N[C@@H](CCCNC(=N)N)C(=O)N[C@@H](CC(C)C)C(=O)N[C@@H](CCCNC(=N)N)C(=O)N[C@@H](CCCNC(=N)N)C(=O)N[C@H](C)C(=O)N[C@@H](CCCNC(=N)N)C(=O)N1CCC[C@H]1C(=O)N[C@@H](CCCCN)C(N)=O", "test": "ligand displacement, radioligand", "Ki [nM]": 3760}
{"Compound": "Cc1cc(O)cc(C)c1CC(N)C(=O)NC1CCNc2c(CCc3ccccc3)cc(Cc3ccccc3)cc21 (stereo not drawn)", "test": "ligand displacement, radioligand", "conditions": "cell membranes", "Ki [nM]": 0.37}
{"Compound": "CC(C)C[C@H](NC(=O)[C@H](CCCNC(=N)N)NC(=O)[C@H](Cc1ccccc1)NC(=O)[C@H](Cc1ccccc1)NC(=O)[C@H](Cc1ccccc1)N(C)C(=O)COc1ccccc1)C(=O)N[C@@H](CCCNC(=N)N)C(=O)N[C@@H](CCCNC(=N)N)C(=O)N[C@H](C)C(=O)N[C@@H](CCCNC(=N)N)C(=O)N1CCC[C@H]1C(=O)N[C@@H](CCCCN)C(N)=O", "test": "ligand displacement, radioligand", "Ki [nM]": 1450}
{"Compound": "Cc1cc(O)cc(C)c1CC(N)C(=O)NC1CCNc2c(C(=O)Nc3ccccc3)cc(Cc3ccccc3)cc21 (stereo not drawn)", "test": "ligand displacement, radioligand", "conditions": "cell membranes", "Ki [nM]": 0.32}
{"Compound": "Cc1cc(O)cc(C)c1CC(N)C(=O)NC1CCNc2ccc(Cc3ccc4c(c3)OCO4)cc21 (stereo not drawn)", "test": "ligand displacement, radioligand", "conditions": "cell membranes", "Ki [nM]": 0.12}
{"Compound": "CC(=O)N[C@@H](Cc1ccccc1)C(=O)N[C@@H](Cc1ccccc1)C(=O)N[C@@H](Cc1c[nH]c2ccccc12)C(=O)N[C@@H](CCCNC(=N)N)C(=O)N[C@@H](CC(C)C)C(=O)N[C@@H](CCCNC(=N)N)C(=O)N[C@@H](CCCNC(=N)N)C(=O)N[C@H](C)C(=O)N[C@@H](CCCNC(=N)N)C(=O)N1CCC[C@H]1C(=O)N[C@@H](CCCCN)C(N)=O", "test": "ligand displacement, radioligand", "Ki [nM]": 1180}
{"note": "A few entries again:"}
{"Compound": "Oc1cccc(CCN(CCc2ccccc2)CC2CCCC2)c1", "test": "ligand displacement, radioligand", "conditions": "cell membranes", "Ki [nM]": 130}
{"Compound": "Cc1cc(O)cc(C)c1CC(N)C(=O)NC1CCNc2c(C(=O)Nc3ccccc3)cc(Cc3ccccc3)cc21 (stereo not drawn)", "test": "ligand displacement, radioligand", "conditions": "cell membranes", "Ki [nM]": 0.32}
{"Compound": "CCCCc1cc(Cc2ccccc2)cc2c1NCCC2NC(=O)C(N)Cc1c(C)cc(O)cc1C (stereo not drawn)", "test": "ligand displacement, radioligand", "conditions": "cell membranes", "Ki [nM]": 0.76}
{"Compound": "CCc1cc(Cc2ccccc2)cc2c1NCCC2NC(=O)C(N)Cc1c(C)cc(O)cc1C (stereo not drawn)", "test": "ligand displacement, radioligand", "conditions": "cell membranes", "Ki [nM]": 0.09}
{"Compound": "COC(=O)N(C)[C@@H](Cc1ccccc1)C(=O)N[C@@H](Cc1ccccc1)C(=O)N[C@@H](Cc1ccc(O)cc1)C(=O)N[C@@H](CCCNC(=N)N)C(=O)N[C@@H](CC(C)C)C(=O)N[C@@H](CCCNC(=N)N)C(=O)N[C@@H](CCCNC(=N)N)C(=O)N[C@H](C)C(=O)N[C@@H](CCCNC(=N)N)C(=O)N1CCC[C@H]1C(=O)N[C@@H](CCCCN)C(N)=O", "test": "ligand displacement, radioligand", "Ki [nM]": 1300}
